Measured values collected from several papers.
Numbered parts are unrelated; each lists some results of a single study. Positions count from the first letter of the parent shown.

Study 1 — technique: DHFR PCA, deep sequencing; matrix: yeast; together with: (+)-ABA 58 µM; reference: wild-type fitted maximum; direction: higher = stronger binding
Target: ABI1, truncated, D143A, DHFR fusion (Arabidopsis thaliana)
Setting: methotrexate growth selection, single substitutions
Parent: PYL1, truncated, DHFR fusion (Arabidopsis thaliana); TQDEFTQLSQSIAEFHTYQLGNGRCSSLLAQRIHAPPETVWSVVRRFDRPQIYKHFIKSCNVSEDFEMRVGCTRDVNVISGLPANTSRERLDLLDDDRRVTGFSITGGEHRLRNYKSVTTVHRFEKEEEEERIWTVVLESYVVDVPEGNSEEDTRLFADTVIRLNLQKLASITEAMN
`L112G`: “relative binding score” 0.000704%.
For `V78Y`, “relative binding score” read 51.8%.
For `L138T`, “relative binding score” read 9.58%.
`N114H` — result for “relative binding score”: 82.1%.
`A84V` — result for “relative binding score”: 12.2%.
For `I79L`, “relative binding score” read 58.3%.
`V78M`: “relative binding score” 68%.
`G21Q` — result for “relative binding score”: 88.8%.
`R49T` — result for “relative binding score”: 81%.
For `Q51E`, “relative binding score” read 63.9%.
Under “relative binding score”, `R111D` is recorded as 6.28%.
`V143Q`: “relative binding score” 38.1%.
For `R113E`, “relative binding score” read 83.9%.
`G107Y` — result for “relative binding score”: 16.8%.
`W41P`: “relative binding score” 3.72%.
For `E128C`, “relative binding score” read 91.5%.
For `N149V`, “relative binding score” read 36.5%.
`V76I` — result for “relative binding score”: 86.1%.
Under “relative binding score”, `H16T` is recorded as 8.5%.

Study 2 — target: CCND1, cyclin fold, Cln2 fusion (human); technique: yeast growth competition, sequencing; matrix: yeast; setting: strong parent motif; reference: not given; direction: higher = stronger binding
Parent: RBL1 docking peptide (human); GSAKRRLFGEDPP; partner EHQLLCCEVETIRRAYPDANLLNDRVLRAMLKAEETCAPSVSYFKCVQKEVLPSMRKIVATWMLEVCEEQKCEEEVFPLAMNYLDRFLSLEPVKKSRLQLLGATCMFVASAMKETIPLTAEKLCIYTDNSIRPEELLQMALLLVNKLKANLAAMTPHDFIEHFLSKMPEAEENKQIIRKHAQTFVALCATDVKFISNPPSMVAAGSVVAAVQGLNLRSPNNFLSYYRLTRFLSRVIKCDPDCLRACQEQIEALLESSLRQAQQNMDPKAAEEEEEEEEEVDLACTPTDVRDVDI
For `G9Y`, “normalised enrichment score” read 2.26.
`R6N` — result for “normalised enrichment score”: 1.09.
`F8N` — result for “normalised enrichment score”: 0.171.
`E10D`: “normalised enrichment score” 2.18.
Under “normalised enrichment score”, `K4W` is recorded as 0.372.
Under “normalised enrichment score”, `R5W` is recorded as 0.233.
`A3K`: “normalised enrichment score” 0.312.
`R5G`: “normalised enrichment score” 0.464.
`P12I` — result for “normalised enrichment score”: 1.61.
`P12D`: “normalised enrichment score” 2.58.
`P12A` — result for “normalised enrichment score”: 2.05.
`G9I`: “normalised enrichment score” 1.59.
`S2T`: “normalised enrichment score” 1.67.
`R6L` — result for “normalised enrichment score”: 1.7.
Under “normalised enrichment score”, `F8Y` is recorded as 0.197.
`D11H`: “normalised enrichment score” 0.466.

Study 3 — target: UBE2I UBC core domain (UniProt P63279); technique: yeast two-hybrid; matrix: yeast; setting: mostly zero background; reference: not given; direction: higher = stronger interaction
B1: PJA2 RING domain (UniProt O43164); chain DHTAIGQEQCCPICCSEYIKDDIATELPCHHFFHKPCVSIWLQKSGTCPVCRRHFPPAVIEA
B2: RMND5B RING domain (UniProt Q96G75); chain MKCWYHSVFACPILRQQTSDSNPPIKLICGHVISRDALNKLINGGKLKCPYCPMEQNPADGK
B3: RFPL3 RING domain (UniProt O75679); chain MAALFQEASSCPVCSDYLEKPMSLECGCTVCLKCINSLQKEPHGEDLLCCCCSMVSQRNKIRP
B4: MDM2 RING domain (UniProt Q00987); chain TQDKEESVESSLPLNAIEPCVICQGRPKNGCIVHGKTGHLMACFTCAKKLKKRNKPCPVCRQPIQMIVLTYFP
B5: TRIM2 RING domain (UniProt Q9C040); chain VRQIDKQFLICSICLERYKNPKVLPCLHTFCERCLQNYIPAHSLTLSCPVCRQTSILPEKGV
B6: TRIM32 RING domain (UniProt Q13049); chain NLDALREVLECPICMESFTEEQLRPKLLHCGHTICRQCLEKLLASSINGVRCPFCSKITRITSLTQ
Under “lacZ reporter activity”, `B1 (PJA2 RING domain)` is recorded as 0.
Under “lacZ reporter activity”, `B2 (RMND5B RING domain)` is recorded as 0.
For `B3 (RFPL3 RING domain)`, “lacZ reporter activity” read 0.
For `EDVLSKDAGECAICLEELQQGDTIARLPCLCIYHKGCIDEWFEVNRSCPEHPSD (ZNRF2 RING domain (UniProt Q8NHG8))`, “lacZ reporter activity” read 0.
`GSEEEEIPFRCFICRQAFQNPVVTKCRHYFCESCALEHFRATPRCYICDQPTGGIFNPA (RNF113B RING domain (UniProt Q8IZP6))` — result for “lacZ reporter activity”: 0.
`VPADASPDSKCPICLDRFDNVSYLDRCLHKFCFRCVQEWSKNKAECPLCKQPFDSIFHSV (TOPORS RING domain (UniProt Q9NS56))`: “lacZ reporter activity” 0.
Under “lacZ reporter activity”, `B4 (MDM2 RING domain)` is recorded as 0.
`B5 (TRIM2 RING domain)` — result for “lacZ reporter activity”: 0.
`B6 (TRIM32 RING domain)`: “lacZ reporter activity” 0.

Study 4 — technique: RNA Bind-n-Seq; molecule type: RNA; matrix: in vitro; tested at: not given; reference: input RNA pool; direction: higher = stronger binding
Target: RING finger protein unkempt homolog, zinc fingers 1-6, GST-SBP tag (UNK, Homo sapiens, UniProt Q9C0B0, residues 30-357)
Setting: RNA with constant flanks, human-mouse chimeric sites, ends assumed
Residues (chain): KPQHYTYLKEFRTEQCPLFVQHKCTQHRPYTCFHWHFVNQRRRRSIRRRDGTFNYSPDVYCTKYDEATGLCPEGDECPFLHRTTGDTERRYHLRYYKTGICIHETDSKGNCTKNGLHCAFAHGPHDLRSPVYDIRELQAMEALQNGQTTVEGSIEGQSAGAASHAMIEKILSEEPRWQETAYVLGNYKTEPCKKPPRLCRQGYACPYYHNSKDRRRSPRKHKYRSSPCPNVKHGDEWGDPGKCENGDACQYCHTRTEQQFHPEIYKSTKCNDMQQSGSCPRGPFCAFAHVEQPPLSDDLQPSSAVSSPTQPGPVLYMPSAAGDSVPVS
`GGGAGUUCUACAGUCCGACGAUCCUGAAAAACACAGAUAUCAAAGUUGUUGACUUUGGAAGUGCAACGUAUGAUGAUGAACAUCAUAGUACUUUGGUGUCUACCCGGCACUACAGAGCUCCCGAGGUCAUUUUGGCUUUAGGUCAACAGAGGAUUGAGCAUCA` gave a bound/input enrichment of 0.514 ratio.
With `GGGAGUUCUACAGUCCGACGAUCGUAGCUGGGACUACAGAAGAAUGCUGAAUUUCAGUCACUUGCUGAUGACUUCUGAUGUCCCAGCAAAUGUUGGCAUUGUUGACUGCUGAGAAGAUACUUCUGAGGACCCACGUCUAAGGUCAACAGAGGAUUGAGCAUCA` the bound/input enrichment was 0.0725 ratio.
The bound/input enrichment of `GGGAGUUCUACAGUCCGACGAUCUCAACAGACAACAUCAAAUACCAGCCUAAGGGGGGUCAGGUACAAAUUGUUACCAAGAAGAUAGACUUAAGCCAUGUGACAUCCAAAUGUGGCUCUCUGAAGAACAUCCGCCACAGGCCACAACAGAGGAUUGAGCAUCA` is reported as 0.392 ratio.
`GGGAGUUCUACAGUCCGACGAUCGCUCCUCCCCGCUCUGCAGCCUGGGGACACUGGGCUGCAUUUUUUUUCCAGCUUUCUUUUAAAACUCUCAGUGUAACUUCUUUUUCUGACAUUUCAUUUUUUUUAAAUAGUGUAUUUUUUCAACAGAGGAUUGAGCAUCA` gave a bound/input enrichment of 6.9 ratio.
For `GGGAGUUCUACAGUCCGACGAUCUUGAAAACUGAUUCAAGCAAGUUUGAAUAUCACAAUGUUAGCUUUCUAAUUCCAUAAAAGUACUUGGUUUUUACAGUUUAUAAUCUGACAUCACCCCCCGUUUAUAAGUAAAGAGCAACUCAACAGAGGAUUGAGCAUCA`, the bound/input enrichment was 0.967 ratio.
`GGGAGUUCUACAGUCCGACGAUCUUGCUACUGACUCCCUGGGUCAAGUUCCUGUGGGAAUCAUACAGGCAGUGUUUGGACCUUCUUCGAAACAAUUCUAGAGUAGAGCGCCUGUACCAUGAUAUCGCCCAGCAAGCUUUCAAACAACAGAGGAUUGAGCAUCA` has a bound/input enrichment of 0.208 ratio.
For `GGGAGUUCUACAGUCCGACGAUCUAAGUUAUUUUGUACAGCUUUGUAAAUUCUUAACAUUUUUAUAUUGCCAUGUUUAUUUUUUUUAGAUGCUUUAUUAAAUUAAGUACAUAGCUAAGGUAAUGAACAUCUUUUUCAGUAAUUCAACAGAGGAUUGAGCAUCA`, the bound/input enrichment was 1.43 ratio.

For quick reference, copied from above (study 3):
Under “lacZ reporter activity”, `B2 (RMND5B RING domain)` is recorded as 0.
`B6 (TRIM32 RING domain)`: “lacZ reporter activity” 0.
Under “lacZ reporter activity”, `B1 (PJA2 RING domain)` is recorded as 0.
Under “lacZ reporter activity”, `B4 (MDM2 RING domain)` is recorded as 0.
`GSEEEEIPFRCFICRQAFQNPVVTKCRHYFCESCALEHFRATPRCYICDQPTGGIFNPA (RNF113B RING domain (UniProt Q8IZP6))` — result for “lacZ reporter activity”: 0.
